Measured values of several laboratories.
Compare with care: the assays were run in different laboratories. “And” joins repeats or separate records; there may be more than shown. Numbers after ± are the reported error.
HLA class I histocompatibility antigen, A alpha chain allele A*01:01: HLA class I histocompatibility antigen, A alpha chain, allele A*01:01 (Homo sapiens, UniProt P04439)
B1: EFR3A 721-791 (Homo sapiens, UniProt Q14156); chain SNTEEITFEALKKAIDTSGMEEQEKEKRRLVIEKFQKAPFEEIAAQCESKANLLHDRLAQILELTIRPPPS
B2: BRAF kinase 448-723 K723G/P722S/S720E/L716E/S713E/Q709R/L706S/A688R/Y673S/K630S/V600E/L588N/Q562R/I551K (Homo sapiens, UniProt P15056); sequence looked up; chain DDWEIPDGQITVGQRIGSGSFGTVYKGKWHGDVAVKMLNVTAPTPQQLQAFKNEVGVLRKTRHVNILLFMGYSTKPQLAIVTQWCEGSSLYHHLHASETKFEMKKLIDIARQTARGMDYLHAKSIIHRDLKSNNIFLHEDNTVKIGDFGLATEKSRWSGSHQFEQLSGSILWMAPEVIRMQDSNPYSFQSDVYAFGIVLYELMTGQLPYSNINNRDQIIFMVGRGSLSPDLSKVRSNCPKRMKRLMAECLKKKRDERPSFPRILAEIEELARELSG
B3: PUX5 301-421 (Arabidopsis thaliana, UniProt Q7Y175); chain KNPFQGVGRTLGASGSGSSSAPQASSAPMNVAPAPSRGLVVDPAAPTTSIQLRLADGTRLVSRFNNHHTVRDVRGFIDASRPGGSKEYQLLTMGFPPKQLTELDQTIEQAGIANAVVIQKF
B4: EFR3B 716-787 (Homo sapiens, UniProt Q9Y2G0); chain VPAEEITYETLKKAIVDSVAVEEQERERRRQVVEKFQKAPFEEIAAHCGARASLLQSKLNQIFEITIRPPPS
B5: IgG L:G68E; V domains shown; VH QVQLVQSGAEVKKPGASVKVSCKASGYTFTNYGLSWVRQAPGQGLEWMGWISANNGDTNYGQEFQGRVTMTTDTSTSTAYMELRSLRSDDTAVYYCARDSSSSWARWFFDLWGRGTLVTVSS; VL SYVLTQPPSVSVAPGKTARITCGGNIIGSKLVHWYQQKPGQAPVLVIYDDGDRPSGIPERFSGSNSENTATLTISRVEAGDEADYYCQVWDTGSDPVVFGGGTKLTVL
B6: TEPSIN W188S/D189S/E190S/L191S (Homo sapiens, UniProt Q96N21); chain MAAAPPLRDRLSFLHRLPILLKGTSDDDVPCPGYLFEEIAKISHESPGSSQCLLEYLLSRLHSSSGHGKLKVLKILLYLCSHGSSFFLLILKRNSAFIQEAAAFAGPPDPLHGNSLYQKVRAAAQDLGSTLFSDTVLPLAPSQPLGTPPATGMGSQARPHSTLQGFGYSKEHGRTAVRHQPGQAGGGSSSSDSGPSSQNSSQNSDLSRVSDSGSHSGSDSHSGASREPGDLAERVEVVALSDCQQELSLVRTVTRGPRAFLSREEAQHFIKACGLLNCEAVLQLLTCHLRGTSECTQLRALCAIASLGSSDLLPQEHILLRTRPWLQELSMGSPGPVTNKATKILRHFEASCGQLSPARGTSAEPGPTAALPGPSDLLTDAVPLPGSQVFLQPLSSTPVSSRSPAPSSGMPSSPVPTPPPDASPIPAPGDPSEAEARLAESRRWRPERIPGGTDSPKRGPSSCAWSRDSLFAGMELVACPRLVGAGAAAGESCPDAPRAPQTSSQRTAAKEPPGSEPSAFAFLNA
UniProt P38646, sequence (whole entry, unmodified, looked up): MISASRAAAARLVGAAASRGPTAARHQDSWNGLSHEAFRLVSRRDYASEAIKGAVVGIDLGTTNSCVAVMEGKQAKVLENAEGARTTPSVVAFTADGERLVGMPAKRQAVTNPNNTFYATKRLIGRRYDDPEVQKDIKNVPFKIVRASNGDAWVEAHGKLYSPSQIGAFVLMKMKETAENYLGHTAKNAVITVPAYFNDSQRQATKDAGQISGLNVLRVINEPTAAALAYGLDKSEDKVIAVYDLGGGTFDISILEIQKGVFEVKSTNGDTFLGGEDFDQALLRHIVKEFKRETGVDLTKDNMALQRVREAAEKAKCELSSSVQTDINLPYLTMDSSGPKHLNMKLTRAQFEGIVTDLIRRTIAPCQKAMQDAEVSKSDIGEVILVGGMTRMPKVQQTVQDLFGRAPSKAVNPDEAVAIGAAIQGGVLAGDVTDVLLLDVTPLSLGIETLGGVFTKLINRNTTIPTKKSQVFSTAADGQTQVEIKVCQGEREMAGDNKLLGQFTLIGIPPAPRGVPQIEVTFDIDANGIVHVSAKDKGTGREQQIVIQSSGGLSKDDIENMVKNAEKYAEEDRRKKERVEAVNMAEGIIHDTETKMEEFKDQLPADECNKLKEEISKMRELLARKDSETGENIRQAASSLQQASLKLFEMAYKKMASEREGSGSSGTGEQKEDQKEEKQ
UniProt P54609, sequence (whole entry, looked up): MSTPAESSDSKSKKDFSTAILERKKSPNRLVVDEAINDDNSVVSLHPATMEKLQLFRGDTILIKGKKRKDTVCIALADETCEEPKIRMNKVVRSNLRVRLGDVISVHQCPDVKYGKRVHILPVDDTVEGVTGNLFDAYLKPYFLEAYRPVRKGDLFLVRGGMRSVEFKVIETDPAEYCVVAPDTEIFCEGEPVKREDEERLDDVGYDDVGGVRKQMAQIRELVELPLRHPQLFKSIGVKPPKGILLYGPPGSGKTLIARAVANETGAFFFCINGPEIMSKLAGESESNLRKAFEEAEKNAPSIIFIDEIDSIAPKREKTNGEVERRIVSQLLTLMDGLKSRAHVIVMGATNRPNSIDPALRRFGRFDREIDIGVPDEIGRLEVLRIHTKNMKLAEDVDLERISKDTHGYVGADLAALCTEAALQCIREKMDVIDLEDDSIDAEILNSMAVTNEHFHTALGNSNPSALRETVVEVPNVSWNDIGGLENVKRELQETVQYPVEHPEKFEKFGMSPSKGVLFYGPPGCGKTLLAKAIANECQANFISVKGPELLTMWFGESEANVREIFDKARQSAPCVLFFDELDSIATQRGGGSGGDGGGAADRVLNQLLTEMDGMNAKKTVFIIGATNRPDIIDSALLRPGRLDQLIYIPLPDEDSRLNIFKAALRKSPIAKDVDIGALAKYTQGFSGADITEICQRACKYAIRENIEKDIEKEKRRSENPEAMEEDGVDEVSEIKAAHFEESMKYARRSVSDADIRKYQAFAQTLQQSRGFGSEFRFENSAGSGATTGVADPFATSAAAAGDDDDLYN

For `AATGAATGAATG (dsDNA)`, the Kd was 1310 ± 102 nM (Fibroin-modulator-binding protein-1 99-193 (Bombyx mori, UniProt Q5FBS0); ITC; double-stranded DNA, one strand shown).
With `B1 (EFR3A 721-791)` the koff was 1.68e-05 s⁻¹ (TTC7B/FAM126A 1-308; BLI).
`GSGAGQITKV` has a binding intensity of 0.0429 (human MAGI1-2/6 PDZ construct (MBP fusion); automated holdup; peptide, purified PDZ protein; concentration not given, unit not given; reference: biotin control resin, higher = stronger binding).
`B2` gave a koff of 0.00116 s⁻¹ (MAP2K1 (Homo sapiens, UniProt Q02750); BLI).
For `LTSTVQLIM`, “half-life of peptide-HLA complex” read 42 min (HLA class I histocompatibility antigen, A alpha chain allele A*01:01; complex stability, off-rate; peptide; 37 °C).
With `B3 (PUX5 301-421)` the koff was 0.09 ± 0.01 s⁻¹ (CDC48A 1-190 (Arabidopsis thaliana, UniProt P54609); BLI; 25 °C).
`PFGSLLDYV` gave a binding score of 0.1% (HLA class I histocompatibility antigen, A alpha chain allele A*01:01; conformational ELISA; peptide; concentration not given; reference: positive control peptide, direction not given).
The koff of `B4 (EFR3B 716-787)` is reported as 0.000219 s⁻¹ (TTC7B/FAM126A FAM126A 1-308; BLI).
`CALLLSAPRR (GOT2 (Gallus gallus); fluorescein label)` gave a koff of 0.00433 s⁻¹ (HSPA9 47-584 (Homo sapiens, UniProt P38646); FP; peptide).
With `ACAWCLRGTICCSG (MP5.4.3; Cys2-Cys12, Cys5-Cys11 disulfides)` the koff was 0.0041 s⁻¹ (CTRB1 α-chymotrypsin (Bos taurus, UniProt P00766); SPR; peptide).
`KKVTFGLNRNMTAEFKKTDKSILVSPTGPSRVAFDPEQKPLH (RRP1B 682-723 (Homo sapiens, UniProt Q14684))` has a koff of 0.055 s⁻¹ (PPP1CA 7-330 Q20R (Homo sapiens, UniProt P62136); SPR).
With `B5 (IgG L:G68E)` the koff was 0.0027 s⁻¹ (IL13 fragment (Homo sapiens); SPR; antibody).
`B6 (TEPSIN W188S/D189S/E190S/L191S)` has a koff of 0.078 s⁻¹ and 0.085 s⁻¹ and 0.068 s⁻¹ and 0.077 s⁻¹ (MAP1LC3B 1-120 (Homo sapiens, UniProt Q9GZQ8); BLI).

Repeated from above:
`B2` gave a koff of 0.00116 s⁻¹ (MAP2K1 (Homo sapiens, UniProt Q02750); BLI).
For `LTSTVQLIM`, “half-life of peptide-HLA complex” read 42 min (HLA class I histocompatibility antigen, A alpha chain allele A*01:01; complex stability, off-rate; peptide; 37 °C).
